Measured values from different studies.
Lines come from different studies, so protocols differ. Values joined by “and” are separate records of one study, mostly repeats; a detail may differ. Numbers after ± are the reported error.
Faah: Fatty-acid amide hydrolase 1 (Faah, Rattus norvegicus, UniProt P97612)
Sequence of UniProt P97612 (whole entry, looked up): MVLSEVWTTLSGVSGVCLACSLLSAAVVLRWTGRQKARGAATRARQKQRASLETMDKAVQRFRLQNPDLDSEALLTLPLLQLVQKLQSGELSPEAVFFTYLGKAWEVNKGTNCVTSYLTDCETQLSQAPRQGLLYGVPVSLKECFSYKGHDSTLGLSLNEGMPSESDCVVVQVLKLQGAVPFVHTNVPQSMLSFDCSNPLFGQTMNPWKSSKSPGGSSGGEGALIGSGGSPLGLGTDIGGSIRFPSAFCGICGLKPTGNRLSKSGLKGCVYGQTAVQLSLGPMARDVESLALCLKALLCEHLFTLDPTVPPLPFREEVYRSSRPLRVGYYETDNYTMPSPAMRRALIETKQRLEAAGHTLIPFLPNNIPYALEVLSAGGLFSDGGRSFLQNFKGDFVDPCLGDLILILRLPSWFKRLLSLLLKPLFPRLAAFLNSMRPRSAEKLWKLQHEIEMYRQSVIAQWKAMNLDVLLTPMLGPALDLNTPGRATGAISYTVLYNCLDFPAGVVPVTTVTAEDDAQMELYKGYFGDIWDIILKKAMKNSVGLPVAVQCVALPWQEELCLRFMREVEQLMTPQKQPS
UCHL1: Ubiquitin carboxyl-terminal hydrolase isozyme L1 (UCHL1, Homo sapiens, UniProt P09936)
Sequence of UniProt Q9EP73 (whole entry, looked up): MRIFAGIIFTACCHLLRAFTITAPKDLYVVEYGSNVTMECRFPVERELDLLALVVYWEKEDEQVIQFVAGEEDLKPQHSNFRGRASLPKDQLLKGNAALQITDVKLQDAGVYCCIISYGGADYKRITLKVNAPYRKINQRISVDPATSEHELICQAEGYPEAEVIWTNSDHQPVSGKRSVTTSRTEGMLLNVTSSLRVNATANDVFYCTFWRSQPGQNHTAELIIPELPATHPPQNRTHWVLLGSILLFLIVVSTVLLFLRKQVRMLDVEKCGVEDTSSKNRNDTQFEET
Sequence of UniProt P09936 (whole entry, looked up): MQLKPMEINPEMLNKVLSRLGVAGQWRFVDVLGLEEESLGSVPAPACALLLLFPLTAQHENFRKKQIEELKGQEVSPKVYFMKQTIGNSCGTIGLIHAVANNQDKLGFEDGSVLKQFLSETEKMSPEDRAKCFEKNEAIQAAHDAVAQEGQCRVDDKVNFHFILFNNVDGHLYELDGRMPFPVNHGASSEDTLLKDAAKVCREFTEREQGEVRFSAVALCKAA
Sequence of UniProt Q16602 (whole entry, looked up): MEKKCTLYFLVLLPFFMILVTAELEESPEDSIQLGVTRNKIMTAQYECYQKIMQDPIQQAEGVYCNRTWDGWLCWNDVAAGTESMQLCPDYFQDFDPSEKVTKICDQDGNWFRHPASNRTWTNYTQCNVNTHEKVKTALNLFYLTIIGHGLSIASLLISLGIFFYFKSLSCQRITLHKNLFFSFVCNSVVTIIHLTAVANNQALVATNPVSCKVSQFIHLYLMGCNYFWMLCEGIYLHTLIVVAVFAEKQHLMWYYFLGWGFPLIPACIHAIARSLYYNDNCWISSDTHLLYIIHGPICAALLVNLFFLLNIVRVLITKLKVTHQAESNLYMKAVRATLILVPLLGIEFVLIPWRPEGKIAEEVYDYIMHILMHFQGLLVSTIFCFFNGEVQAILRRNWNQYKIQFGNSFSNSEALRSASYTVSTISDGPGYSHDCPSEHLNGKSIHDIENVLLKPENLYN
Sequence of UniProt O42275 (whole entry, looked up): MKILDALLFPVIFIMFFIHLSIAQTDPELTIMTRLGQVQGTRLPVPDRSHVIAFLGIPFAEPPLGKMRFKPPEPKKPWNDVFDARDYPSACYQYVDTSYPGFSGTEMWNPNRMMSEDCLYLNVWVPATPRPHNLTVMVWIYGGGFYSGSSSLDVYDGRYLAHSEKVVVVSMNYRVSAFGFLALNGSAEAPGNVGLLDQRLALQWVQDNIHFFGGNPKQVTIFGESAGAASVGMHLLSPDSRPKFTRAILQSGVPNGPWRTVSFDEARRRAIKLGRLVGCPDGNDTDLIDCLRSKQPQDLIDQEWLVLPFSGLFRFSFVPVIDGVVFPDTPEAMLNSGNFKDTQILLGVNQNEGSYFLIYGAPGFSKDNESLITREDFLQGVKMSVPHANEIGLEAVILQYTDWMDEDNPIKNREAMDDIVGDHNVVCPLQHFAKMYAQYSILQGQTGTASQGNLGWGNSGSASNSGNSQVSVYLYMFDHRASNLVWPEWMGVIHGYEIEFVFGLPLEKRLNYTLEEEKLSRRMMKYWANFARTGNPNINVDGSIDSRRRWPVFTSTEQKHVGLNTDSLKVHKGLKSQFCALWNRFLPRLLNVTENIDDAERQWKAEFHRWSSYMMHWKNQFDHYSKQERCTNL
Sequence of UniProt Q06520 (whole entry, looked up): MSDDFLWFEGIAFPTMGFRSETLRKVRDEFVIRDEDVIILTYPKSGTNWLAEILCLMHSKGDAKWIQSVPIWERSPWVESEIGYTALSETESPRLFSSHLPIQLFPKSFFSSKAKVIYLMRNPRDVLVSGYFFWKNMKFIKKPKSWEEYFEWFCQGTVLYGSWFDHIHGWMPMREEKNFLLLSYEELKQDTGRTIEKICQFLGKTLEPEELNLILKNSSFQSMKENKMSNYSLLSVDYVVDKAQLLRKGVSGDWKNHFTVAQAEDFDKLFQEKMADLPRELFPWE
Sequence of UniProt Q9NSA0 (whole entry, looked up): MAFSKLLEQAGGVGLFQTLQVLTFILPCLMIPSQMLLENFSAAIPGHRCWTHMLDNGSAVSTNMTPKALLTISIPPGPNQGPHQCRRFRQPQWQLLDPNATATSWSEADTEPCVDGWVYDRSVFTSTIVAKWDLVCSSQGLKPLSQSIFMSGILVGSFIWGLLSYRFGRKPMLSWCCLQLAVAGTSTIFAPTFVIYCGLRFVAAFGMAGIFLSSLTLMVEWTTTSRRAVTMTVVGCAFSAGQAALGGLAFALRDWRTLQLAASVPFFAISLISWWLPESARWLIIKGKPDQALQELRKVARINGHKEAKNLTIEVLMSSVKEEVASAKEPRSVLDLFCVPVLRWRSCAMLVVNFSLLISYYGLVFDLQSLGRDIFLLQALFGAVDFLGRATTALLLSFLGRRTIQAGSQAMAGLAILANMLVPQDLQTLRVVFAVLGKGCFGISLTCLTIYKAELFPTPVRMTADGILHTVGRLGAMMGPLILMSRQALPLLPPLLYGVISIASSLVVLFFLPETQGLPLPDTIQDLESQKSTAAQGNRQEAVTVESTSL
Sequence of UniProt P25311 (whole entry, looked up): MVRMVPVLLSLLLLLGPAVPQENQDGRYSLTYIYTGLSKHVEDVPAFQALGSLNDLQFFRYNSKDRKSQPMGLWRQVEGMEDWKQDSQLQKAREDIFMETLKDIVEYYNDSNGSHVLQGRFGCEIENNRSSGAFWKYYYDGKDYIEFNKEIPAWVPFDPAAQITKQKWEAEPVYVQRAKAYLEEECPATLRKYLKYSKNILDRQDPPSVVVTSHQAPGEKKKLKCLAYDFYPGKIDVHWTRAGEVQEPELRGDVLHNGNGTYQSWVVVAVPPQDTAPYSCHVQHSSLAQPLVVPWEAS
Sequence of UniProt P20782 (whole entry, looked up): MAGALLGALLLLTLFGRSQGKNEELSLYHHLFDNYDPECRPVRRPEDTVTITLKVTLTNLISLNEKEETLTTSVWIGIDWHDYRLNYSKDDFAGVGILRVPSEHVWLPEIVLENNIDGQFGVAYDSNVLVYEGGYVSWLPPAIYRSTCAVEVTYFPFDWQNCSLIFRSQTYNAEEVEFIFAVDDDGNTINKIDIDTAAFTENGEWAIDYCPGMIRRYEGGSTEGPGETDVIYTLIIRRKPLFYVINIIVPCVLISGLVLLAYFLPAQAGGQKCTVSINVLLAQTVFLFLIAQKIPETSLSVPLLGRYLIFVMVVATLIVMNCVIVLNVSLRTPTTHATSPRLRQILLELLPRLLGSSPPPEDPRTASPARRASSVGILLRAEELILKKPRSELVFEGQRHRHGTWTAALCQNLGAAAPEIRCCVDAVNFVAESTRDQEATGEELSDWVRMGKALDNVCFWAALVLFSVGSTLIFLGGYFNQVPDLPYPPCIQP
Sequence of UniProt P08988 (whole entry, looked up): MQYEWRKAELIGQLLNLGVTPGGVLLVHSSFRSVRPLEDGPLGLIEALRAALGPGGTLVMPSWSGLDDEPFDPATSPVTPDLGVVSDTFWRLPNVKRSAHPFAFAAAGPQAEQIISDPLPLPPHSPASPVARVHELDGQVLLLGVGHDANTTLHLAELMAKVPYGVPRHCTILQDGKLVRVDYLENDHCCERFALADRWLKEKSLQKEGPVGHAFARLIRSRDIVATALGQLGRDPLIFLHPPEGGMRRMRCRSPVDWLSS
Sequence of UniProt P00942 (whole entry, unmodified, looked up): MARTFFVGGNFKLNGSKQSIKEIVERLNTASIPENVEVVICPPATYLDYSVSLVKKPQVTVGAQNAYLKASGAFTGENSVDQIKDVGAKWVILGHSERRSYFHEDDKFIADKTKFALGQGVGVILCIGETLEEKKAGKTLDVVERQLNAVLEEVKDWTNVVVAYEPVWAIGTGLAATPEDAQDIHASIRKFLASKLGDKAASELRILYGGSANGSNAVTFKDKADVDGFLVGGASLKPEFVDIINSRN

| Structure (SMILES) | target | test | test system | setting | how to read | measurement | value |
| --- | --- | --- | --- | --- | --- | --- | --- |
| Oc1ccc(/C=C/c2cc(O)cc(O)c2)cc1 | O-methyltransferase (Sorghum bicolor, UniProt A0A1B6PFV1, W279A) | isothermal titration calorimetry |  | with: SFG |  | ∆H | -6.61 ± 0.265 kcal/mol |
| COc1cc(-c2[o+]c3cc(O)cc(O)c3cc2O[C@@H]2O[C@H](CO)[C@@H](O)[C@H](O)[C@H]2O)cc(OC)c1O | Albumin (ALB, Homo sapiens, UniProt P02768) | van't Hoff analysis |  | concentration not given |  | binding entropy change | 0.05 kJ/(mol·K) |
| C[C@H]1CN(c2n[nH]c3nc(N[C@H]4CC[C@H](NS(=O)(=O)CCC(F)(F)F)CC4)ncc23)CCO1 | Protein FAM222B (Homo sapiens, UniProt Q8WU58) | competitor, Kinobeads competition | HEK293, K562, placenta extract | 0.032 µM | relative to: vehicle | remaining binding | 97% |
| O=C(O)c1cccc(C(O)P(=O)(O)O)n1 (centres unmarked) | VIM-2 (Escherichia coli, UniProt Q5U7L7) | inhibitor |  | with: nitrocefin |  | dissociation half-life | 6.1 ± 0.2 min |
| O=C(Nc1cnccc1Cl)N1CCN(Cc2ccc3c(c2)OC(F)(F)O3)CC1 | CALCRL (Homo sapiens, UniProt Q16602) | radioligand binding |  | concentration not given |  | inhibition | -4% and 6% |
| CC[C@@H](C)[C@@H](NC(=O)[C@@H](Cc1ccc(O)cc1)NC(=O)[C@H]1CCCN1C(=O)[C@@H](CCCNC(=N)N)NC(=O)[C@H](N)Cc1c[nH]cn1)C(=O)N[C@H](C)C(=O)N[C@H](Cc1c[nH]cn1)C(=O)N[C@H](CCCNC(=N)N)C(=O)N[C@H](CCCCNC(=O)c1cccc(S(=O)(=O)F)c1)C(=O)N[C@H](Cc1ccc(O)cc1)C(=O)N[C@H](CO)C(=O)N[C@H](Cc1ccccc1)C(N)=O | Programmed cell death 1 ligand 1, with PD-1 (Cd274, Mus musculus, UniProt Q9EP73) | PD-1-Fc binding | B16 | concentration not given, 48 h |  | PD-L1 blocking rate | 17.4% and 55.2% and 47.4% |
| COc1cc(Nc2ncc(F)c(Nc3ccc4c(n3)NC(=O)C(C)(C)O4)n2)cc(OC)c1OC | MAP3K10 (Homo sapiens, UniProt Q02779) | binding, KINOMEscan |  | 10 µM, MLK2 kinase |  | inhibition | 100% |
| CCCCC/C=C\C/C=C\C/C=C\C/C=C\CCCC(=O)NCCO | Trpv1 (Mus musculus, UniProt Q704Y3, T551V) | patch clamp |  |  |  | Hill coefficient | 2.74 ± 0.75 |
| Nc1ncc(-c2nc(N3CCOCC3)nc(N3CCOCC3)n2)c(C(F)F)n1 | MUSK (Homo sapiens, UniProt O15146) | KINOMEscan |  | 10 µM |  | remaining binding | 92% |
| O=C(Nc1cccnn1)N1CCC(=Cc2cccc(Oc3ccc(C(F)(F)F)cn3)c2)CC1 | Faah | probe labelling, inhibitor, competitive ABPP with azido-FP probe | rat brain membrane fraction | 0.1 µM |  | inhibition | 99.7% |
| COc1ccc(CNC(=O)[C@@H]2CS[C@H]3CS[C@H](CS)N32)cc1 | sfhI (Serratia fonticola, UniProt Q9RMI1) | activity class |  | concentration not given |  | activity | inactive |
| [2H]c1c([2H])c([C@]2([2H])CCCN2C(=O)C(C)(C)Oc2ccc3cn[nH]c3c2)c([2H])c([2H])c1C([2H])([2H])[2H] | ACVR2B (Homo sapiens, UniProt Q13705) | KINOMEscan |  | 1 µM | relative to: DMSO control | remaining binding | 83% |
| O=C1NC(=O)c2c1c1c3ccccc3n3c1c1c2c2ccccc2n1[C@H]1CC[C@@H]3O1 | TRPM8 (Homo sapiens, UniProt Q7Z2W7) | antagonist | HEK293 | 5 µM | relative to: control | remaining activity | 101 ± 11% |
| C[N+]1(C)CCN(c2cccc(Cl)c2)CC1.[I-] | Nicotinic acetylcholine receptor alpha1/beta1/epsilon/delta (Mus musculus, UniProt P02716+P04756+P09690+P20782) | peak current, agonist, two-electrode voltage clamp | Xenopus oocytes | 30 µM | relative to: ACh 30 µM | response relative to ACh | 47% |
| Clc1ccc(COc2ccccc2CNCc2ccncc2)cc1 | Aminoglycoside N(3)-acetyltransferase IV (aacC4, Salmonella sp, UniProt P08988) | neomycin acetylation, inhibitor |  | with: neomycin |  | highest concentration without inhibition | > 200 µM |
| CC[C@H](C)[C@H](NC(C)=O)C(=O)N[C@@H](CCC(=O)O)C(=O)N[C@H](C(=O)N[C@H](C=O)CC(=O)O)[C@@H](C)O | Caspase-4 (Casp4, Mus musculus, UniProt P70343) |  |  |  |  | Hill slope | -1.01 |
| O=C(O)COP(=O)(O)O | TPI1 (Saccharomyces cerevisiae, UniProt P00942, Y208F) | enzyme activity, competitive inhibitor, GPDH/NADH-coupled |  | pH 7.5, 25 °C, ionic strength 0.1 NaCl, with: glyceraldehyde 3-phosphate substrate | relative to: mutant over wild type | Ki ratio | 440 |
| O=C(O)C(F)(F)C(F)(F)C(F)(F)C(F)(F)C(F)(F)C(F)(F)C(F)(F)F | SLC22A11 (Homo sapiens, UniProt Q9NSA0) | substrate, uptake | HEK293 stably expressing SLC22A11 | 2.5 min, pH 6.8, 37 °C, two-transporter model |  | Jmax | 300 ± 26 pmol/min/mg protein |
| N[C@@H](CCC(=O)O)C(=O)O | Glutamate-gated chloride channel alpha (glc-1, Caenorhabditis elegans, UniProt G5EBR3, del364-370/del374-421/R372G) | ion current, agonist, two-electrode voltage clamp | Xenopus oocytes |  |  | Hill coefficient | 0.9 |
| Oc1c(Cl)cc(-c2ccccc2)c(F)c1Cl | SULT2A1 (Homo sapiens, UniProt Q06520) | substrate |  | pH 7.0, 37 °C, with: PAPS 200 µM |  | Vmax | 33.2 ± 1.7 nmol/min/mg |
| O=C(c1ccc(Cl)cc1)N1CCN2C(=O)N(OC(=O)N3CCOc4ccccc43)C(=O)C2C1 (centres unmarked) | Zinc-alpha-2-glycoprotein (AZGP1, Homo sapiens, UniProt P25311) | MS-based ABPP | SW-620 conditioned medium | 10 µM | relative to: compound over DMSO, lower = more inhibition | median protein ratio | 1.1 |
| O=C(CCl)C1CC1(Cl)Cl (centres unmarked) | UCHL1 | covalent, intact protein LC-MS |  | 12.5 µM |  | labelling | 10.1% |
| CN(C(=O)n1cnc(-c2ccc[n+]([O-])c2)c1)C1CCCCC1 | CAMK4 (Homo sapiens, UniProt Q16566) | enzyme activity |  | 50 µM, with: autocamtide-2 |  | inhibition | 1% |
| N#C[C@@H]1CC(F)(F)CN1C(=O)CNC(=O)c1ccnc2ccc(OCCCN3CCN(C(=O)CN4CCN(CC(=O)[O-])CCN(CC(=O)[O-])CC4)CC3)cc12.[18F-].[Al+3] | Fibroblast activation protein alpha (Rattus norvegicus, UniProt A0A9K3Y732) | PET | rat standard diet control | intravenous, 0.05 MBq/g, 30 min, seventh week |  | myocardial SUVmax | 1.06 ± 0.19 |
| CN1CCN(c2cc(-c3ccncc3)c(-c3ccc4ccccc4c3)nn2)CC1 | ADORA2A (Homo sapiens, UniProt P29274) | agonist, FLIPR calcium |  | 12.5 µM |  | activation | -1.7% |
| CCOC(=O)COc1ccc2c(=O)c3ccccc3oc2c1 | ache (Electrophorus electricus, UniProt O42275) | enzyme activity |  | 0.42 µM, with: substrate 3.45 mM | higher = faster reaction | reaction velocity | 0.0031 a.u. |
| CN(C(=O)n1cnc(-c2ccc[n+]([O-])c2)c1)C1CCCCC1 | Faah | enzyme activity, ABPP | rat, brain | oral, 30 mg/kg/day, 1 days | relative to: vehicle | fold change | -94.6 |
| NC(=O)c1csc(C(=O)CCl)c1 | UCHL1 | covalent, intact protein LC-MS |  | 12.5 µM |  | labelling | 23.7% |
| COc1ccc(N2C(=O)N(c3c(C)cccc3Cl)Cc3cnc(Nc4ccc(C5CCN(C)CC5)cc4OC)nc32)nc1 | TSSK2 (Homo sapiens, UniProt Q96PF2) | kinase activity |  | 0.5 µM |  | inhibition | 4.28% |
